Earlier results as cited in several papers.
Lines come from different studies, so protocols differ. ± gives the spread as reported.
UGT1A1: UDP-glucuronosyltransferase 1A1 (UGT1A1, Homo sapiens, UniProt P22309)
UniProt P22309, sequence (whole entry, looked up): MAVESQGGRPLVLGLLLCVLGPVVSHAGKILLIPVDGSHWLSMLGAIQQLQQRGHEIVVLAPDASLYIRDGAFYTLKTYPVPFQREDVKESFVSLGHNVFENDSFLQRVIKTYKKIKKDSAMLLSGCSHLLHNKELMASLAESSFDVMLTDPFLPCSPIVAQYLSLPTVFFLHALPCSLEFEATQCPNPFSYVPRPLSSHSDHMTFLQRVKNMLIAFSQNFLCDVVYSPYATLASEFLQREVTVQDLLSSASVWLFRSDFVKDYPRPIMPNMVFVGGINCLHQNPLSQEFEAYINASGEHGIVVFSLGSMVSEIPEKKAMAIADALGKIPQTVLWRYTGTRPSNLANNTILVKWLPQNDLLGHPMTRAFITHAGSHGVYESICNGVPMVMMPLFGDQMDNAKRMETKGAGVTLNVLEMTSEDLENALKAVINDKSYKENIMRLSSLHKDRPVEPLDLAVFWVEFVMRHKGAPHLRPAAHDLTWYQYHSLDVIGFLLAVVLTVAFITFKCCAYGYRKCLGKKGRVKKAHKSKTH
Genome polyprotein NS2B-NS3 protease: Genome polyprotein, NS2B-NS3 protease (dengue virus type 2, UniProt P29990)
UniProt P48066, sequence (whole entry, looked up): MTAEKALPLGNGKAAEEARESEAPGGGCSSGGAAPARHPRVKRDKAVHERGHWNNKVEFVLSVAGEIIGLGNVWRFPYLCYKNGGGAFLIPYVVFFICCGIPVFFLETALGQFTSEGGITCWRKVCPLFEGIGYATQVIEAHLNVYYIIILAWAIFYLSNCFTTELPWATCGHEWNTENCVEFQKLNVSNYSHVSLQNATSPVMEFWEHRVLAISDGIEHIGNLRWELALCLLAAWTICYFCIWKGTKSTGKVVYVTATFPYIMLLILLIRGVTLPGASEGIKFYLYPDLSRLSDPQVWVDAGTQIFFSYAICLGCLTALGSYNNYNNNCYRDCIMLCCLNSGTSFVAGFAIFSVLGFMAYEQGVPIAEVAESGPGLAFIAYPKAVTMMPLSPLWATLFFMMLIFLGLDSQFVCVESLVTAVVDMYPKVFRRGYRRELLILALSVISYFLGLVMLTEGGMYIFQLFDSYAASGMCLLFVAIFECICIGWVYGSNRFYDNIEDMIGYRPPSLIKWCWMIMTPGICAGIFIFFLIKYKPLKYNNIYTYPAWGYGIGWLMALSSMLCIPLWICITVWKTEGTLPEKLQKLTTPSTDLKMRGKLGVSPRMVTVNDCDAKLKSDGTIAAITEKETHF
UniProt Q9Y5N1, sequence (whole entry, looked up): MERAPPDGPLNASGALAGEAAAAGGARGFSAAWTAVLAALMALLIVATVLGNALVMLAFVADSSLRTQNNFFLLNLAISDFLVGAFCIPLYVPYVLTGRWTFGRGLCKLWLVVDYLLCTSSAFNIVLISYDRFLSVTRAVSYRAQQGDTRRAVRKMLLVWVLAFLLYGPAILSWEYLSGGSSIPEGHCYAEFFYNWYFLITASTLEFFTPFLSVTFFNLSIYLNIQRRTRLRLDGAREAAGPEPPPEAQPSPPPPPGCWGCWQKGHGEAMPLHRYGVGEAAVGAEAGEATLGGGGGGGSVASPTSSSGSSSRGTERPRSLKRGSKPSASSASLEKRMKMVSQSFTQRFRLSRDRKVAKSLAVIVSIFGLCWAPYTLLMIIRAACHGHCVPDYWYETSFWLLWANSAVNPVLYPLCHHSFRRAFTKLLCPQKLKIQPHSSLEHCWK
UniProt P37288, sequence (whole entry, looked up): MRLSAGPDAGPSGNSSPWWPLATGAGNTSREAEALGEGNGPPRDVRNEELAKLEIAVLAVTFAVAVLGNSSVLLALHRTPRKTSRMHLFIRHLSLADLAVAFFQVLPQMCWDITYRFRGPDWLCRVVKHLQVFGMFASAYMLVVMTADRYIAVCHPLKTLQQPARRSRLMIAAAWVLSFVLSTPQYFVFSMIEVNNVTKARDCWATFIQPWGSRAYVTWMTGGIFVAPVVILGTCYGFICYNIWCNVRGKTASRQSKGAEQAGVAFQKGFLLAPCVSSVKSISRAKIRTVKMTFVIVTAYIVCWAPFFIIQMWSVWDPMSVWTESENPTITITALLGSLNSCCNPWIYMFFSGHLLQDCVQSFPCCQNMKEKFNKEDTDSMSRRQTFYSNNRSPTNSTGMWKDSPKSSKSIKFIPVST
UniProt Q13177, sequence (whole entry, looked up): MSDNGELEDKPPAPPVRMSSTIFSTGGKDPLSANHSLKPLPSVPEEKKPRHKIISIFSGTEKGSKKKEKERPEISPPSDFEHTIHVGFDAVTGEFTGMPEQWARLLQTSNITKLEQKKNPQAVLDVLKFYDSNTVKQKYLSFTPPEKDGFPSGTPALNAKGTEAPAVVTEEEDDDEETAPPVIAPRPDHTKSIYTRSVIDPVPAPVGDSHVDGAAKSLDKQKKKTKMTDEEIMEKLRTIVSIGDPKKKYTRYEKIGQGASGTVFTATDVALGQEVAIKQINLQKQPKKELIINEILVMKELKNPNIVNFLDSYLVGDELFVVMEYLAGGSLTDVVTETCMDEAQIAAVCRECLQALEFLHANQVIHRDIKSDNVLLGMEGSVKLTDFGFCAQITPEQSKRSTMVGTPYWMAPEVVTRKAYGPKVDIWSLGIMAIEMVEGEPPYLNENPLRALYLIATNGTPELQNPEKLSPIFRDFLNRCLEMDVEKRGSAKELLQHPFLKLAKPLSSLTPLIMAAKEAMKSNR
UniProt P40337, sequence (whole entry, unmodified, looked up): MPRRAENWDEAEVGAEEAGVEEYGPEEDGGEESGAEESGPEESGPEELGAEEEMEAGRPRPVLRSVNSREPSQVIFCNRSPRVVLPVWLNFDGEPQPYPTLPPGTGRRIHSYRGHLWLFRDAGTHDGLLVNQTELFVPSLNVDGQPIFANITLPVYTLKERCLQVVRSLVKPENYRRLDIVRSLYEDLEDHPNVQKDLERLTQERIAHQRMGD
UniProt Q9NTG7, sequence (whole entry, looked up): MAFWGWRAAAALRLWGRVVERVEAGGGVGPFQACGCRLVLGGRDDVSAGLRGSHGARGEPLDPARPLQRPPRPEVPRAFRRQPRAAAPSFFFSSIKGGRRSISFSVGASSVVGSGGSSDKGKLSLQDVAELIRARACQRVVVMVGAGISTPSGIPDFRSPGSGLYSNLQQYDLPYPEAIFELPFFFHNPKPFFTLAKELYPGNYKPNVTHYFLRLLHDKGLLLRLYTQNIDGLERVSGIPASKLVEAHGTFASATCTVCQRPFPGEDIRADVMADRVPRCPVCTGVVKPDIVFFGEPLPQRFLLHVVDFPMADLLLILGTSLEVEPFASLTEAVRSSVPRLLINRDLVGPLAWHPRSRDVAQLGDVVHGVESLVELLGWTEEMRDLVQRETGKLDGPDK

For `O=C(O)C1OC(Oc2c(-c3ccc(O)cc3)oc3ccc(O)cc3c2=O)C(O)C(O)C1O` (stereo not drawn), the Vmax was 0.34 ± 0.05 nmol/mg/min (UGT1A1; glucuronidation, substrate; Supersomes).
`CC(C)c1ccccc1-c1nc(NCc2ccccn2)c2c(ccn2C)n1` gave a remaining activity of under 50% (Serine/threonine-protein kinase PAK 2 (PAK2, Homo sapiens, UniProt Q13177); inhibitor; 10 µM).
With `O=C(O)C1OC(Oc2c(-c3ccccc3)oc3cc(O)ccc3c2=O)C(O)C(O)C1O` (stereo not drawn) the Vmax was 1.02 ± 0.34 nmol/mg/min (UGT1A1; glucuronidation, substrate; Supersomes).
With `Cc1ncsc1-c1ccc2c(c1)OCCOCCOC[C@@H](NC(=O)C[C@@H]1N=C(c3ccc(Cl)cc3)c3c(sc(C)c3C)-n3c(C)nnc31)COCCOCCOCC(=O)N[C@@H](C(C)(C)C)C(=O)N1C[C@H](O)C[C@H]1C(=O)NC2` the ΔG was -9.2 kcal/mol (Bromodomain-containing protein 4, BD2 (BRD4, Homo sapiens, UniProt O60885); isothermal titration calorimetry; BRD4 titrated into compound).
With `COc1ccc(Nc2nc(Nc3ccc(OCC[18F])cc3)ncc2Br)cc1` the tissue uptake was 1.59 ± 0.27 %ID/g (S180 tumour-bearing mice, muscle; intravenous, 120 min).
With `Cc1cc(O)c2c(c1O)C(=O)c1cc(O)cc(O)c1C2=O` the inhibition was 59.2 ± 0.1% (Vasopressin V1a receptor (AVPR1A, Homo sapiens, UniProt P37288); antagonist; 50 µM).
`O=C(O)[C@@H](O)[C@@H]1CCCN1` — result for transporter inhibition: “inhibited” (Sodium- and chloride-dependent GABA transporter 3 (SLC6A11, Homo sapiens, UniProt P48066); inhibitor; concentration not given).
`O=C(O)C1OC(Oc2ccc3c(=O)c(O)c(-c4ccccc4)oc3c2)C(O)C(O)C1O` (stereo not drawn) gave a Vmax of 3.04 ± 0.42 nmol/mg/min (UGT1A1; glucuronidation, substrate; Supersomes).
For `CNCCNC(=O)CN1C(=O)Cc2c([nH]c3ccc(Br)cc23)-c2ccc(Cl)cc21`, the inhibition was 59 ± 6% (Trypanothione synthetase (Trypanosoma brucei brucei, UniProt Q8IEX1); enzyme activity; 30 µM).
`Cc1cc(-c2cc(Cl)ccc2OCCn2c(C)nc3cc(C(F)(F)F)cc(C#N)c3c2=O)c2scc(C(=O)NS(C)(=O)=O)c2n1` has an activity of 30 nM (eIF4E cap-binding site; fluorescence polarization).
For `O=P(O)(O)O[C@@H]1[C@H](O)[C@H](O)[C@@H](OP(=O)(O)O)[C@H](OP(=O)(O)O)[C@H]1O`, the Km was 55 ± 22 µM (INPP5B; enzyme activity, malachite green).
With `O=C(O)C1OC(Oc2cc(O)c3c(=O)c(O)c(-c4ccccc4)oc3c2)C(O)C(O)C1O` (stereo not drawn) the Vmax was 4.59 ± 0.46 nmol/mg/min (UGT1A1; glucuronidation, substrate; Supersomes).
For `O=c1ccc(OCCCN2CCCCC2)nn1-c1ccc(Cl)c(Cl)c1`, the inhibition was 35.6 ± 3.2% (Histamine H3 receptor (HRH3, Homo sapiens, UniProt Q9Y5N1); 1.0 µM).
`CC1CCN(C(=O)c2cccc(NC(=O)Nc3ccc(Cl)cc3)c2)CC1` gave an inhibition of 69.2 ± 14.6% (Penicillin-binding protein 4 (Staphylococcus aureus, UniProt P72355); Bocillin-FL binding; 50 µM).
With `O=C(O)C1OC(Oc2ccc(-c3cc(=O)c4ccccc4o3)cc2)C(O)C(O)C1O` (stereo not drawn) the Vmax was 0.85 ± 0.01 nmol/mg/min (UGT1A1; glucuronidation, substrate; Supersomes).
`Cc1onc(-c2ccc(F)cc2)c1C(=O)N[C@H](C(=O)Nc1cccc(C(N)=O)c1)c1ccc(OCc2ccccc2)cc1` has an inhibition of 63% (Genome polyprotein NS2B-NS3 protease; DENV-2 protease cell reporter; HeLa; 12.5 µM).
`CNC(=S)NCCCC[C@H](NC(=O)OCc1ccccc1)C(=O)N[C@@H](Cc1c[nH]c2ccccc12)C(=O)NC(C)C` gave an inhibition of 12% (NAD-dependent protein deacetylase sirtuin-3, mitochondrial (SIRT3, Homo sapiens, UniProt Q9NTG7); enzyme activity, inhibitor; 10 µM).
For `CN(C)C/C=C/C(=O)Nc1ccc(C(=O)Nc2cccc(Nc3cc(-c4c[nH]c5ccccc45)ncn3)c2)cc1`, the IC50 was 200 to 2800 nM (PI5P4K alpha, beta, gamma; kinase activity, inhibitor).
For `O=C(O)C1OC(Oc2ccc3c(=O)c(O)c(-c4ccc(O)cc4)oc3c2)C(O)C(O)C1O` (stereo not drawn), the Vmax was 1.08 ± 0.13 nmol/mg/min (UGT1A1; glucuronidation, substrate; Supersomes).
For `Cc1nc(-c2ccc(F)cc2)sc1C(=O)N[C@H](C(=O)Nc1cccc(C(N)=O)c1)c1ccc(OCc2ccccc2)cc1`, the inhibition was 88% (Genome polyprotein NS2B-NS3 protease; DENV-2 protease cell reporter; HeLa; 12.5 µM).
`Cc1ncsc1-c1ccc(CNC(=O)[C@@H]2C[C@@H](O)CN2C(=O)[C@@H](NC(=O)COCCOCCOCCNC(=O)C[C@@H]2N=C(c3ccc(Cl)cc3)c3c(sc(C)c3C)-n3c(C)nnc32)C(C)(C)C)cc1` gave a ΔG of -9.81 kcal/mol (von Hippel-Lindau disease tumor suppressor, with Elongin B/C (VHL, Homo sapiens, UniProt P40337); isothermal titration calorimetry; VCB titrated into compound).

For quick reference, copied from above:
`CC(C)c1ccccc1-c1nc(NCc2ccccn2)c2c(ccn2C)n1` gave a remaining activity of under 50% (Serine/threonine-protein kinase PAK 2 (PAK2, Homo sapiens, UniProt Q13177); inhibitor; 10 µM).
With `O=C(O)C1OC(Oc2c(-c3ccccc3)oc3cc(O)ccc3c2=O)C(O)C(O)C1O` (stereo not drawn) the Vmax was 1.02 ± 0.34 nmol/mg/min (UGT1A1; glucuronidation, substrate; Supersomes).
